Measured values from different studies.
Each numbered part is a random draw from the data of one study; scales do not carry over between parts.

Study 1
Target: Prothrombin, mature alpha-thrombin (F2, Homo sapiens, UniProt P00734)
Method: aptamer microarray, sandwich
Molecule type: DNA with 2'F-ANA
Sample: in vitro
Tested at: 200 nM
Setting: whole 15-mer aptamer, many near background
Together with: Cy3 exosite-II aptamer, 400 nM
Reading: higher = stronger binding
Under “mean fluorescence intensity”, `GGTTGGTGTGGTTGG (2'F-ANA at 4 8 12 15)` is recorded as 615 a.u.
`GGTTGGTGTGGTTGG (2'F-ANA at 2 3 4 5 6 9 10 11 12 15)`: “mean fluorescence intensity” 60.6 a.u.
`GGTTGGTGTGGTTGG (2'F-ANA at 2 9 10 13 14)`: “mean fluorescence intensity” 80 a.u.
`GGTTGGTGTGGTTGG (2'F-ANA at 1 2 3 6 9 10 13 14)`: “mean fluorescence intensity” 53.8 a.u.

Study 2
Target: Sal-like protein 4, full length isoform B (SALL4, Homo sapiens, UniProt Q9UJQ4-2, residues 1-616)
Method: universal PBM
Molecule type: double-stranded DNA, one strand shown
Sample: in vitro
Tested at: not given
Setting: 8-mer, flanks averaged, mean of replicates
Reading: higher = stronger binding
The E-score of `GTATTAGA` is reported as 0.24.
`CCTCTATC` gave an E-score of -0.0363.
With `AGTTCCCG` the E-score was -0.286.

Study 3
Target: Fragile X messenger ribonucleoprotein 1, C-terminal low-complexity region (Fmr1, Mus musculus, UniProt P35922)
Method: RNA Bind-n-Seq
Molecule type: RNA
Sample: in vitro
Tested at: 200 nM
Setting: whole 134-nt RNA, ends assumed
Together with: 150 mM LiCl
Baseline: input library
Reading: higher = stronger binding
Library: 7-deaza-guanosine replaces G
`GGGAGUUCUACAGUCCGACGAUCACCAUGCAGGUGGGCAUCUUUGGGAAGUGGGGCAAGGGGAGGAUAGGGAGGGGGGUAACACUUUGGGAACAGGUGGUCCCAGGUCGUUUCUGGAAUUCUCGGGUGUCAAGG` has a log2 enrichment of 1.11.
The log2 enrichment of `GGGAGUUCUACAGUCCGACGAUCCCUGUGCUACACAUCGUAUGUACCGAAUCGGUUUUUUUGGUUUUUUUGGGUUUUUUUGGGGAAAGUAUUAUGUUACGCCGUUCGGAUCUGUGGAAUUCUCGGGUGUCAAGG` is reported as -1.33.
With `GGGAGUUCUACAGUCCGACGAUCAAGUCCUGUGCUACACAUCGUAUGUACCGAAUCAAACCCAAACCCCCAAACCCAAAAAAGUAUUAUGUUACGCCGUUCGGAUCUGCACUUUGGAAUUCUCGGGUGUCAAGG` the log2 enrichment was 0.111.

Single results of other studies
With `PhoQ, residues 284 288 289 292 302 303 TSTLRA` the fold induction was 2.38 (PhoP, residues 12 14 15 18 19 FWNTL (Escherichia coli, UniProt P23836); Sort-seq, refers to: YFP reporter; E. coli; PhoQ-PhoP variant library, together with: 10 µM Mg2+; baseline: high Mg2+ state, higher = stronger signaling).

A few entries again (study 1):
Under “mean fluorescence intensity”, `GGTTGGTGTGGTTGG (2'F-ANA at 4 8 12 15)` is recorded as 615 a.u.
`GGTTGGTGTGGTTGG (2'F-ANA at 1 2 3 6 9 10 13 14)`: “mean fluorescence intensity” 53.8 a.u.
